Assay results pooled from the literature.
Numbered parts are unrelated; each lists some results of a single study.

Study 1 — method: protein binding microarray; form: double-stranded DNA, one strand shown; matrix: in vitro; tested at: not given; baseline: not given; direction: higher = stronger binding
Target: Histone acetyltransferase KAT6A, both winged helices, GST fusion (KAT6A, Homo sapiens, UniProt Q92794, residues 1-181)
Setting: 8-mer, flanks averaged, mean of 2 arrays, mostly near background
Residues (chain): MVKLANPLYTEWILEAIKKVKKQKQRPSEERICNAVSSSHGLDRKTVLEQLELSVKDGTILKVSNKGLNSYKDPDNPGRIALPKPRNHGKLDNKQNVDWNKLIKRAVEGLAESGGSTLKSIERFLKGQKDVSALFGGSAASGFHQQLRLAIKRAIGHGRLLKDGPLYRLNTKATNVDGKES
| Sequence | E-score |
| --- | --- |
| CCAACTCC | -0.142 |
| ACGAAGTC | -0.141 |
| ATCCGGAA | 0.142 |
| AGTAATAC | -0.0457 |
| AATCGGAA | 0.0964 |
| AGTGATGC | -0.121 |
| CGCTGGTA | 0.0439 |
| AATATACG | 0.0309 |
| AAACAATC | 0.0309 |
| CAGTTACC | -0.0921 |
| AGGGAATA | -0.125 |
| ACAGGGAT | -0.259 |
| TATGGCAA | -0.00561 |
| AGGCACCC | -0.039 |
| GTTAAGGA | -0.0178 |
| ATCCGGTA | -0.0257 |
| ACCATGCA | -0.0656 |

Study 2 — method: RNA Bind-n-Seq; form: RNA; matrix: in vitro; tested at: 1 µM; setting: whole 134-nt RNA, ends assumed; added: 150 mM KCl; baseline: input library; direction: higher = stronger binding
Target: Ras GTPase-activating protein-binding protein 1, RRM domain (G3BP1, Homo sapiens, UniProt Q13283)
UniProt Q13283, sequence (whole entry, looked up): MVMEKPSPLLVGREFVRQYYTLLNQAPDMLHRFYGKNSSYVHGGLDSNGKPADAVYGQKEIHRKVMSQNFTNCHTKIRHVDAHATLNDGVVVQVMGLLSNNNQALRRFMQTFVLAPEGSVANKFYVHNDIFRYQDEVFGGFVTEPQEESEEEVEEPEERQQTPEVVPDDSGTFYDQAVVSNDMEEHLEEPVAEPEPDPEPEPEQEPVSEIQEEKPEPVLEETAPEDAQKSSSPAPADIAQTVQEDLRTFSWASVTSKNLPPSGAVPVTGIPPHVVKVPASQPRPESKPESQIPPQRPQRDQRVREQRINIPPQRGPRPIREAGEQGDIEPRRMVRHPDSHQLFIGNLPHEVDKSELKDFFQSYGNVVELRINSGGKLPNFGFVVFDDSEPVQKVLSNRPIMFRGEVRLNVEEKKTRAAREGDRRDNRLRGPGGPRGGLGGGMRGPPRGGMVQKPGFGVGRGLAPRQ
| Sequence | log2 enrichment |
| --- | --- |
| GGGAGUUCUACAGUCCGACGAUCGUCCUGUGCUACACAUCGUAUGUACCGAAUCGGGAAAGGGAAAAAGGGUUUUUUUGGGAAAGUAUUAUGUUACGCCGUUCGGAUCUGCACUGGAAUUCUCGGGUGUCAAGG | 0.0906 |
| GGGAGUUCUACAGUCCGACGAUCACCAUGCAGGUGGGCAUCUUUGGGAAGUGGGGCAAGGGGGGGAUAGGGAGGGGGGUAACACUUUGGGAACAGGUGAAACCAGGUCGUUUCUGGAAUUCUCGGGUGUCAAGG | -0.31 |
| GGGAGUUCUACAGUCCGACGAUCGCAGGAAGUAAAAACAAAUGGAAAUCCUUCGGAUAGUGGCAGGGGUGGGGGUUGCUAAGGAAAGGGUGGGAUGGGAGUGGGUAAAGAGUUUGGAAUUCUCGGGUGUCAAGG | 1.07 |
| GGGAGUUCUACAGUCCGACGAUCUCAAGUCCUGUGCUACACAUCGUAUGUACCGAAUCGGGGCCGGCCGGGCCGGGGAAAGUAUUAUGUUACGCCGUUCGGAUCUGCACUUCCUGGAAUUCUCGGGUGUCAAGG | -0.625 |
| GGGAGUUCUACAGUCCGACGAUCACCAUGCAGGUGGGCAUCAUUGGGAAGUGGGGCAAGGGGGGGAUAGGGAGGGGGGUAACACUUUGGGAACAGGUGGUCCCAGGUCGUUUCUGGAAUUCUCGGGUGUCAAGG | -0.401 |
| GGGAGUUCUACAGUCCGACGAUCUCCUGUGCUACACAUCGUAUGUACCGAAUCGGGGAGGGGAAAAAAAGGGGUUUUUGGGGAAAGUAUUAUGUUACGCCGUUCGGAUCUGCAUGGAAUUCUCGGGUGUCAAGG | 0.773 |
| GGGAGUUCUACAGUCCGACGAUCUUAGGUGGCUCCAGGAUGUAUUUAACGUGCCCUUGGUCAUCCAGAUGACGGAUGACGAGAAGUAUCUGUGGAAGGACCUGACCCUGGACCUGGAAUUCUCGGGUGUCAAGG | -0.403 |
| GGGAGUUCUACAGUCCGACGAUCUGGGAGGUGGAUUUUGUUUAUUUUUUUAACUCAUUUCCAGGGGUGGGAAUUUUUUUUUAAUAUGUGUCAUGAAUAAAGUUGUUUUUGAAAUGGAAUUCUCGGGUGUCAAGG | 2.02 |
| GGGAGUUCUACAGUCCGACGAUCGUGCUACACAUCGUAUGUACCGAAUCGGGGCCCCCCCGGGGCCCCCCCGGGGCCCCCCCGGGGAAAGUAUUAUGUUACGCCGUUCGGAUCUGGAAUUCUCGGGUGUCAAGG | -0.798 |
| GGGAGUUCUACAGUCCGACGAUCAAGUCCUGUGCUACACAUCGUAUGUACCGAAUCGGGGCCCCGGCCCCGGGCCCCGGGAAAGUAUUAUGUUACGCCGUUCGGAUCUGCACUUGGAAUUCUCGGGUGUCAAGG | -0.91 |

Study 3 — method: RNA Bind-n-Seq; form: RNA; matrix: in vitro; tested at: not given; baseline: input RNA pool; direction: higher = stronger binding
Target: RING finger protein unkempt homolog, zinc fingers 1-6, GST-SBP tag (UNK, Homo sapiens, UniProt Q9C0B0, residues 30-357)
Setting: RNA with constant flanks, human-mouse chimeric sites, ends assumed
Residues (chain): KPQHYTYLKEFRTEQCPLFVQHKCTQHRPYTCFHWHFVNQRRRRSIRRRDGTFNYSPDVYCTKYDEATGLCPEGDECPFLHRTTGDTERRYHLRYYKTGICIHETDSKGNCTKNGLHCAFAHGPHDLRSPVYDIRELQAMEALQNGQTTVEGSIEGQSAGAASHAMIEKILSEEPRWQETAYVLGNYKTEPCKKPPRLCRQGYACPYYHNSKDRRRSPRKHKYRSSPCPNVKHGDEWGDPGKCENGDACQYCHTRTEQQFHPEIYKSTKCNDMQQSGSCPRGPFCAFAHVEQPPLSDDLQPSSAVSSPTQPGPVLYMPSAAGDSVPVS
| Sequence | bound/input enrichment |
| --- | --- |
| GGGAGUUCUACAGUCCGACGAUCGGCCUGGGACCGUCCUGGGCUAGUACAAAUAGCGGCAUGGAGGCUCAGAGAGGAAAGUUUGUUAGUGGAGGCAGUGGUAGAGGCCGUCAUGUACGGUCUUUACACGAAUAGAUGUGUUCUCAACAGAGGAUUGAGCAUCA | 0.758 ratio |
| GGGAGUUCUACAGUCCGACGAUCAAAGAACCUCUCUCUGAUGAAGAUGAGGACAGUGAUGAUGAUGUUGAACCCAUUUCUGAAUUUCGAUUUGUGCCCAGUGAUAAGUCAGCAUUGGAGGCGAUGUUCACUGCAAUGUGCGAGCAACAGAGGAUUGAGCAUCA | 0.298 ratio |
| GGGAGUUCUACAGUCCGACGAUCUAAAUCCUGUGCCAGCAAUUUAUCCCAAAAGUUUUAAAUUCUGGACCAAUAGUGUUUGUUUCCUGAUUAUUGUAUCCAAUACUUUGCCUAGUAUGUAACUCACUCUUACUGAUAAUAAAACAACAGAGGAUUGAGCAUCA | 2 ratio |
| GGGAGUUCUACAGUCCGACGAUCGUGACUGGUGUUAAGAUUUACCCUCAGCAAAGAAGUGCAGUAGUCACCAUAAUUCCAUCUGUGGUGAGUGCCAGUCAGAUUGUGGAGCUGGUCCCAGACCUCAGUUUAGAUACUGGGACUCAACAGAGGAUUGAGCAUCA | 0.413 ratio |
| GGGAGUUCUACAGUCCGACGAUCAUGGUUGUGUCUCUUGAGAUCUAAAAACAAGAUGACUUUUCCUGGCACAUAUUCCAAAGCAAAGACUUUGUUGCCUGCUGCUUCUUGUCUAAUUUACAGGGAUAUUUAAUUUUGUCAGGUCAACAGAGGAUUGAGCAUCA | 0.281 ratio |
| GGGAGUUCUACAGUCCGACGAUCCAGUCCCCGUGUCCCAGUGCAGGACGAGAACAUGGACAACUCAAAGCGGACCCUCUAUUGUAGUUCUUGAUUCUCGAAAUGUGCUAUUAUUGUUUGUCUUUUUUUUUUUUUUUUUAAAGACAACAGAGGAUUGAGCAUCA | 0.984 ratio |
| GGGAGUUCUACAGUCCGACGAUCCCCCAAUUACCAUCUGUGGUCUGGAACCUGCAUUCUUUUUUUAAAAAACAUGUAUACAUUUUAGGGCUGUAGAUUUAUUUUCCUGGUUUUGUUUUUCAUUGCUGACUUUUGAGCACAGAACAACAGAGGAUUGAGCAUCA | 0.565 ratio |
| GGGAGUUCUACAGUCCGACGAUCUCUUUAAAAAAAAAAUUACCUUUUCUGCAUAUUAUAGCCCUCCCAUAGAUCCACGUUCAAGCUCAAAGAGCAAAGGCUUUGCACGGAGCUCAAACAUAAAAGAAAGAAAGAUUUCUGAGACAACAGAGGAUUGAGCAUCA | 3.44 ratio |
| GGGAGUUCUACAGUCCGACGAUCCUCAUGGCUGCAGAAACAGGAAGUGGAAAAACUGGUGCUUUUAGUAUUCCCGUUAUCCAGAUAGUUUAUGAAACUCUGAAAGACCAACAGGAAGGAAAGAAAGGGAAAACAACUAUUAAACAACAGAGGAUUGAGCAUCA | 0.736 ratio |
| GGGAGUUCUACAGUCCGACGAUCAGUGUGCAGGAAUUCAUGACCUUUACAAGUCAACUGAUUGUGGAACGCUCAUCGAAAGGCAGCAGAGCUUCUGUCAAAGAACAAGAGUAUCUUUGCCAUGUCUACGUCCGGAGCGACAGUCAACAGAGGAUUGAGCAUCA | 0.0874 ratio |
| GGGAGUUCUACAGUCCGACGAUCCUAAUCCCCUUUACUGCUCCCCCACUUCUCAUGGUAAUGACAAAAACUUAUAUCCCCGUCCUAGCUUUCACUCAGAUGGCUUAUGGAGCCGGUUUCCUAGCUUUCUUGGGAGGGAUCAGACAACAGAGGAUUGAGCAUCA | 0.571 ratio |

Study 4 — method: RNA Bind-n-Seq; form: RNA; matrix: in vitro; tested at: 365 nM; baseline: no-protein control; direction: higher = stronger binding
Target: RNA binding protein fox-1 homolog 2, RRM domain, GST-SBP tag (RBFOX2, Homo sapiens, UniProt O43251-10, residues 100-194)
Setting: natural RNA segment, single round, ends assumed
Construct (chain): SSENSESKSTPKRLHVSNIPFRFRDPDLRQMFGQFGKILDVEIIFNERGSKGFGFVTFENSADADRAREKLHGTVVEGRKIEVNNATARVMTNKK
| Sequence | RBNS enrichment (R) |
| --- | --- |
| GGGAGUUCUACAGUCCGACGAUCUAGAUCUGAAUUUUCUAUGUUUAGCUAUUUAAUGUUAAUUUCCCACAAUCCAUGGGGGCGCUUAGUGGAAGGAUUAAUAUUAUGUUUAAGGGAAUAGUUUAUAUGGACCUUGGAAUUCUCGGGUGCCAA | 0.708 |
| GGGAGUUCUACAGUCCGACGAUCUGCAUACCUGUUUAGAACCAAAACCACCAUGACACAGUUUUUAUAGUGUCUGUAUAUUUGUGAUGCAAUGGUCUUGUAAAGGUUUUUAAUGAAAACUACCAUUAGCCAGUUGGAAUUCUCGGGUGCCAA | 1.31 |
| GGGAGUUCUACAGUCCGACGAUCCUAAACCCCUGAUGCUGGUUAGGAACUUCUCACCCCAACACGUGUCUUAAGUAAGGCAGGGCAAGGCGGAGGACACUUGGCCAGAAGGAUAGAGACUGCUGGGUUCGUCCUGGAAUUCUCGGGUGCCAA | 0.341 |
| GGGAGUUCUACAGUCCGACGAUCUUAUACUAUAAAUUCAGUGAUGGCAAGAACCAACACUGUUUUUUUGUGAGAAUUGUCAGUGUAACUAUUACCUACCAGUAUUGUUCAGAGAGAUUGAAACAGAAUAAACGUGGAAUUCUCGGGUGCCAA | 0.341 |
| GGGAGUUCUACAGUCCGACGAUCUAGGGGUGGAUAGAGCUGGCUUUCCUUCUGGGCUGUCUCCAUCUGACCCUACCCCUUCCAUGUCCCACCCCACUCCCACCAAAAAGUACAAAAUCAGGAUGUUUUUCACUUGGAAUUCUCGGGUGCCAA | 0.334 |
| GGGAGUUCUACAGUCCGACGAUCUGGUACAUGGUAGGUGUUGUGAUGGAAAUGGAAAGCAUUGGUUAAAUGGAAUAGAGGUCUUGAUCUUUGGAAUGCAUGCCGGUAAUGUAUUUUACAGUACAUGUUAAUAAUGGAAUUCUCGGGUGCCAA | 5.4 |
| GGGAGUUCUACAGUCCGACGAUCUAUGCCCUGGACAAAGAAGUAUGUUUUGCCUAUGUCCCCAUACCAGGACCUUCUUUCAGAACGAGGGUAGUAUUACCCUAUCUGUUGGAAAGGAUGGUUUACAUAGCAGUUGGAAUUCUCGGGUGCCAA | 0.601 |
| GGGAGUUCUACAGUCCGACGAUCACAUUUUUGUAAAUUCUGUGCCCUUUGCUGUAGCUACACUUCAGAUUAAAGUAGGAGAAAGAAUGUGCUGAGUGUUUUCCUCCCUUUGCCUCUACCUGGCCCUCAUCCCAUGGAAUUCUCGGGUGCCAA | 0.679 |
| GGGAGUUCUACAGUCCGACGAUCAGGCAAAAUCAUGAAAUACACUCGGUUCUGUAAAUUGCUUCUUUAAAUGUCCCGUAGAUUCUUCCUGUAGGAAAACGUUACAAGUAUUCAAAGACAGCUAGCUGUCACUGUGGAAUUCUCGGGUGCCAA | 0.381 |

Some of these lines once more (study 1):
| Sequence | E-score |
| --- | --- |
| AGTAATAC | -0.0457 |
| AATATACG | 0.0309 |
| AAACAATC | 0.0309 |
| ACGAAGTC | -0.141 |
| AATCGGAA | 0.0964 |
| CAGTTACC | -0.0921 |
